Assay results of several laboratories.
Each numbered part is a random draw from the data of one study; scales do not carry over between parts.
UniProt Q00534, sequence (whole entry, looked up): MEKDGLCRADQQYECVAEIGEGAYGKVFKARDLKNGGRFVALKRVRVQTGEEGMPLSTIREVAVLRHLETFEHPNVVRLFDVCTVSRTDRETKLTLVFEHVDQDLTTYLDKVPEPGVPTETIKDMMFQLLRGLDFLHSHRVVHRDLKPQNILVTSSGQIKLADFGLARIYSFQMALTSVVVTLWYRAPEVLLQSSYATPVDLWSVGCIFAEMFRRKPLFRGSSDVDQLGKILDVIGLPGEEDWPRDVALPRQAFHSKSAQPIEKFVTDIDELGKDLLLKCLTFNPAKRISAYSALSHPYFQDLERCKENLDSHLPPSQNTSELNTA
UniProt P54760, sequence (whole entry, looked up): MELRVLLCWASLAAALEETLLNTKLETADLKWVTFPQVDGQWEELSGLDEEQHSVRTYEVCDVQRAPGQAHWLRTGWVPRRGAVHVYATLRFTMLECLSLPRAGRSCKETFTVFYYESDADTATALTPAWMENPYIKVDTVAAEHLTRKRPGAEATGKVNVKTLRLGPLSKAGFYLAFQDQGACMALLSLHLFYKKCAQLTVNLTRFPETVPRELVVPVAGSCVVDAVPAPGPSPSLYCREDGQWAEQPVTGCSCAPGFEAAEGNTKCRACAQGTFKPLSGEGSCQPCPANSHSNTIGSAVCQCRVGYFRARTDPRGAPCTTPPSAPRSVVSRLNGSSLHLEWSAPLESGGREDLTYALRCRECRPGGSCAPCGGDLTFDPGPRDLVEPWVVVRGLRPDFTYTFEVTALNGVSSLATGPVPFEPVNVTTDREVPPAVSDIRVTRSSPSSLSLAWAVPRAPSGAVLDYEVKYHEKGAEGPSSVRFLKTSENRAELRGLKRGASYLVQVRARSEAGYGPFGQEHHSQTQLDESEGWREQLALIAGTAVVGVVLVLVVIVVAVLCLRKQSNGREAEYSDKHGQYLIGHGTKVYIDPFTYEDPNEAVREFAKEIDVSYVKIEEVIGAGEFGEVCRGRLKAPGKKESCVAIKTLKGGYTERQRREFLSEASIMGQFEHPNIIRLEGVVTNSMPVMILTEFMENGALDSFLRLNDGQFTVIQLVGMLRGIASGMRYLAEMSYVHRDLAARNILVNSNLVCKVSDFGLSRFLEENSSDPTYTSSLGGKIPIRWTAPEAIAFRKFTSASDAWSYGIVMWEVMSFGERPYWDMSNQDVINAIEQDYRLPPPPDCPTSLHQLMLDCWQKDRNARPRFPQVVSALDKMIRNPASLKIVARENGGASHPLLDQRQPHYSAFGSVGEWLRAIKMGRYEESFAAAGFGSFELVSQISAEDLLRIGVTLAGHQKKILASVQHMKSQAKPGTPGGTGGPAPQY
UniProt O15530, sequence (whole entry, looked up): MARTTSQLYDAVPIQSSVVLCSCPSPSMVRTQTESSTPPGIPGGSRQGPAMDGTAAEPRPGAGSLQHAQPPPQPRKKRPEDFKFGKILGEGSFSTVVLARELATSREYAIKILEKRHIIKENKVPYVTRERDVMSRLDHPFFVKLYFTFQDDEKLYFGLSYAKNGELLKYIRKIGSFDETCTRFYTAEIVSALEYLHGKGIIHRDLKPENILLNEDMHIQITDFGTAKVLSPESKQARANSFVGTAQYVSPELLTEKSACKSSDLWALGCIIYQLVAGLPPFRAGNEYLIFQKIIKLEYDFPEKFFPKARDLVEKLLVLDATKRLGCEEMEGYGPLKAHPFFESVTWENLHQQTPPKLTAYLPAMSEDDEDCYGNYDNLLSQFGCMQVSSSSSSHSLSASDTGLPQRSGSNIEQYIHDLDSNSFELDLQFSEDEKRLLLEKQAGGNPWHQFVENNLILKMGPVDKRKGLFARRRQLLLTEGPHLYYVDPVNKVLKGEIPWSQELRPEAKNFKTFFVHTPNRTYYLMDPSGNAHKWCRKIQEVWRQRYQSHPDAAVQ
UniProt O95819, sequence (whole entry, looked up): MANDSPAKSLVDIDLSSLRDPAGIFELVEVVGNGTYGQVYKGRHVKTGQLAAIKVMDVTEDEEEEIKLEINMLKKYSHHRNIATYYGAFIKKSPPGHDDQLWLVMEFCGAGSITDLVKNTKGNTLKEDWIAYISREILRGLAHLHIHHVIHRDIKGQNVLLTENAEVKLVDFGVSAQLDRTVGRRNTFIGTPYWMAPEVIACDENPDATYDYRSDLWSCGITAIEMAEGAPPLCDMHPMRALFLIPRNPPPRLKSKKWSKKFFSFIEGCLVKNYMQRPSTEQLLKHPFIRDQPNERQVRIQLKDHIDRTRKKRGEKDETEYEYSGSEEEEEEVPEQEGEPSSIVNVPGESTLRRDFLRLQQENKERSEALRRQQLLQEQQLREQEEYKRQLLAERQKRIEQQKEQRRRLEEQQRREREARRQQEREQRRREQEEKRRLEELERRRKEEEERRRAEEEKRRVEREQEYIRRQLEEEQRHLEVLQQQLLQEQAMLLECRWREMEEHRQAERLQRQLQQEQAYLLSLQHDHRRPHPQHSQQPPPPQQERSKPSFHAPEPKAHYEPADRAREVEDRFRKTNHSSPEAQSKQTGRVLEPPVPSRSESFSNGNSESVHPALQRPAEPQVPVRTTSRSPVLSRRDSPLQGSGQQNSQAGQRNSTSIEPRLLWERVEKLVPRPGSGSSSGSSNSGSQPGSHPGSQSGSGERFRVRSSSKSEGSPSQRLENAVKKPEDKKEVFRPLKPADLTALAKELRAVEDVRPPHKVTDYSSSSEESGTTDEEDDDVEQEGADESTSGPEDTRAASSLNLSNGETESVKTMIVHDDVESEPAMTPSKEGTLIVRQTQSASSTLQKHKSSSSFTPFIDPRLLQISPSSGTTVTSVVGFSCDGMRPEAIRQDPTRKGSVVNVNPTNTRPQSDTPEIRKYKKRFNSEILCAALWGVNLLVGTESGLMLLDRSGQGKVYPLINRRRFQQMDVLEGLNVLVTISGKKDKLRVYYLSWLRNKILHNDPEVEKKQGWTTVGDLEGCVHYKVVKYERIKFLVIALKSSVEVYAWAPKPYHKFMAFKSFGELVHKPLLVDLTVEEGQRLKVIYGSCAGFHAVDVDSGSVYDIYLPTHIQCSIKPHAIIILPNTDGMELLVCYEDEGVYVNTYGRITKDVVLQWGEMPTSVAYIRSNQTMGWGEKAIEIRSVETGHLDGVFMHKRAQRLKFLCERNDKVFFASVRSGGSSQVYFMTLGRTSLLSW
UniProt P54762, sequence (whole entry, looked up): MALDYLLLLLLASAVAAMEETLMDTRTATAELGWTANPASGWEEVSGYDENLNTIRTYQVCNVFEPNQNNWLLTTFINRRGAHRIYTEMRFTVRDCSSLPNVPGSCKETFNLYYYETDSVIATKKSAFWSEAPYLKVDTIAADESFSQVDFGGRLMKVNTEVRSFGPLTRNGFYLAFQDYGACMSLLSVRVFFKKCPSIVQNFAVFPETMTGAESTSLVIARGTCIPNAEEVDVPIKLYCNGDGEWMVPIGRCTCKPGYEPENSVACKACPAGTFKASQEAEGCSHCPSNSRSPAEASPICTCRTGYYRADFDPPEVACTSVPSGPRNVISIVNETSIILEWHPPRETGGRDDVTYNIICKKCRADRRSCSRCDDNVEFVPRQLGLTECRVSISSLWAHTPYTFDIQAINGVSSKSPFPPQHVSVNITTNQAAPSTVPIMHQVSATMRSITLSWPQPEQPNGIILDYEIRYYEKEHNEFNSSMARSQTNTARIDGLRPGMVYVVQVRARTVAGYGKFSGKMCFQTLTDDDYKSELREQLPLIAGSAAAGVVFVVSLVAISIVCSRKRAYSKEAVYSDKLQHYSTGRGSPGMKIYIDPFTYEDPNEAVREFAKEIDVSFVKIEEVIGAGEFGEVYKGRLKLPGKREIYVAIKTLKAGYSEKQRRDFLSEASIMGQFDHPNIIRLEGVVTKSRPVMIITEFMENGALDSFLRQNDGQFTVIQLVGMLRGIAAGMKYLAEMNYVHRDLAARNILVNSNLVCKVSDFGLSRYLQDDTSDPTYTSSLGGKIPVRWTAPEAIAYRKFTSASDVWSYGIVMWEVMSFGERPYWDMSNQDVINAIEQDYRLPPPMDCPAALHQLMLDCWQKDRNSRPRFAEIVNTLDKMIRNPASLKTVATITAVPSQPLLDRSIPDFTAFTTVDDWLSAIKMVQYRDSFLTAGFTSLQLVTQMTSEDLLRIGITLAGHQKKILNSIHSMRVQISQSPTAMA
UniProt P22612, sequence (whole entry, looked up): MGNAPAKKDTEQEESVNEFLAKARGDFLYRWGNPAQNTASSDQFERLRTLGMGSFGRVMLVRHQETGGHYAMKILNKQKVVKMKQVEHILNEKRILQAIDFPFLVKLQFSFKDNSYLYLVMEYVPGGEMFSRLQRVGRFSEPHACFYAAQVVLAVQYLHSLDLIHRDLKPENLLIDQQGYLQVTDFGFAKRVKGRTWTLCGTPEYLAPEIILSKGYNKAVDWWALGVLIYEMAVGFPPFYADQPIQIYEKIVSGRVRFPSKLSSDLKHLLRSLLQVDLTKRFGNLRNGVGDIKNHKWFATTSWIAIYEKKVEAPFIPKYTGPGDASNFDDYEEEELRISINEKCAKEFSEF
UniProt Q9H3Y6, sequence (whole entry, looked up): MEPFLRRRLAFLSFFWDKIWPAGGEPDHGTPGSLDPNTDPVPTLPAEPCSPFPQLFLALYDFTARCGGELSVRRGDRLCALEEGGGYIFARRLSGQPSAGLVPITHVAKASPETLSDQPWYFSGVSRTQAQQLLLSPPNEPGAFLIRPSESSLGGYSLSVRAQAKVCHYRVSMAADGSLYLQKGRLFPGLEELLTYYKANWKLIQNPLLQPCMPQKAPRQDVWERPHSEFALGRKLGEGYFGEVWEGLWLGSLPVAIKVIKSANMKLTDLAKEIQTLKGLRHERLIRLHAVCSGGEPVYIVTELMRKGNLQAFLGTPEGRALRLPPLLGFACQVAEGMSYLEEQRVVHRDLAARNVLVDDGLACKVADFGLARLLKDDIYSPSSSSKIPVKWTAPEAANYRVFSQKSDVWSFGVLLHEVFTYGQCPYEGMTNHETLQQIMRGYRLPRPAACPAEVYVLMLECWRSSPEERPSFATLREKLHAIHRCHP

Set 1
Structure (SMILES): COc1ccc(S(=O)(=O)N(CCO)c2ccccc2CN(C)CC=Cc2ccc(Cl)cc2)cc1
Observed: enzyme activity
Mode: inhibitor
Concentration: 0.5 µM
Baseline: control
Endpoint: remaining activity
EPHB4 (Homo sapiens, UniProt P54760): 104%
PRKACG (Homo sapiens, UniProt P22612): 104%
HIPK2 (Homo sapiens, UniProt Q9H2X6): 107%
EPHB1 (Homo sapiens, UniProt P54762): 93.3%
ABL1 (Homo sapiens, UniProt P00519): 100%
Cyclin-dependent kinase 6, with cyclin D3 (CDK6, Homo sapiens, UniProt Q00534): 102%
CAMK2B (Homo sapiens, UniProt Q13554): 100%
SRMS (Homo sapiens, UniProt Q9H3Y6): 101%
MAP4K4 (Homo sapiens, UniProt O95819): 97.6%
PDPK1 (Homo sapiens, UniProt O15530): 93.7%

Set 2
Species: human
Matrix: microsomes or S9
Concentration: 2 µM
Time: 0.5 h
Endpoint: remaining compound
CCCS(=O)(=O)c1nc2ccc(NS(=O)(=O)c3ccc(F)c(Cl)c3)cc2s1: 9.03%
O=c1[nH]c(-c2ccc(F)cc2)c(-c2ccc(F)cc2)c(=O)n1Cc1ccc(Cl)cc1Cl: > 99%
COC(=O)c1ccc(C2NN(C)C3C(=O)N(C(C)C)C(=O)C23)cc1 (stereo not drawn): 84%
Brc1ccc(C2CC(c3ccc(Br)cc3)n3ncnc3N2)cc1 (stereo not drawn): 59.5%
O=S1(=O)N=C(Nc2ccc3c(c2)Cc2ccccc2-3)c2ccccc21: > 99.9%
COC(=O)c1cc(Cl)ccc1C1CCN(CCN2CCc3ccccc3C2=O)CC1: 0.792%
Cc1nn(C)c(C)c1S(=O)(=O)Nc1ccc(-n2nn[nH]c2=O)cc1: 82%
CNC1=C(c2cccc(C)n2)C(=O)C(c2ccc(Cl)cc2Cl)O1 (stereo not drawn): 4.34%
Cn1ccnc1COC(=O)c1cc(C(C)(C)C)n[nH]1: 16.7%
N=c1n(CCN2CCCCC2)c2ccccc2n1CC(O)c1ccccc1 (stereo not drawn): 88.4%
Cc1noc(C)c1-c1cc(CCC2CNCCO2)ncn1 (stereo not drawn): > 100%

Set 3
SMILES: CC(C)n1cnc(-c2ccc(F)cc2)c1-c1ncc(C(=O)Nc2ccc(N3CCN(C)CC3)cc2)[nH]1
Endpoint: patients with adverse event
refers to: ALT increase; patients with idiopathic pulmonary fibrosis; 30 mg twice daily, trial, together with: standard of care therapy: 0%
refers to: AST increase; patients with idiopathic pulmonary fibrosis; 30 mg twice daily, trial, without standard of care: 0%
Phase 2a trial, refers to: haemorrhoids; human, idiopathic pulmonary fibrosis; 30 mg once daily, grade 5: 0%
Phase 2a trial, refers to: haemoptysis; human, idiopathic pulmonary fibrosis; 60 mg once daily, grade 3: 0%
Phase 2a trial, refers to: hypocalcaemia; human, idiopathic pulmonary fibrosis; 30 mg once daily, grade 3: 0%

Other studies, line by line
CC(=O)Nc1c(F)cc(C(=O)N[C@H]2CC[C@H](O)CC2)cc1O[C@@H](C)c1ccccc1  increased mitochondrial mass (HEK293T; high-content imaging; concentration not given, 24 h, recommended concentration): 74%

Repeated from above (set 1):
SRMS (Homo sapiens, UniProt Q9H3Y6): 101%
PRKACG (Homo sapiens, UniProt P22612): 104%
